{"data": "Results from different studies", "FGFR1": "Fibroblast growth factor receptor 1 (FGFR1, Homo sapiens, UniProt P11362)", "note": "Compare with care: the assays were run in different laboratories. ± marks the error that the study gave.", "chain of UniProt P11362 (whole entry, looked up)": "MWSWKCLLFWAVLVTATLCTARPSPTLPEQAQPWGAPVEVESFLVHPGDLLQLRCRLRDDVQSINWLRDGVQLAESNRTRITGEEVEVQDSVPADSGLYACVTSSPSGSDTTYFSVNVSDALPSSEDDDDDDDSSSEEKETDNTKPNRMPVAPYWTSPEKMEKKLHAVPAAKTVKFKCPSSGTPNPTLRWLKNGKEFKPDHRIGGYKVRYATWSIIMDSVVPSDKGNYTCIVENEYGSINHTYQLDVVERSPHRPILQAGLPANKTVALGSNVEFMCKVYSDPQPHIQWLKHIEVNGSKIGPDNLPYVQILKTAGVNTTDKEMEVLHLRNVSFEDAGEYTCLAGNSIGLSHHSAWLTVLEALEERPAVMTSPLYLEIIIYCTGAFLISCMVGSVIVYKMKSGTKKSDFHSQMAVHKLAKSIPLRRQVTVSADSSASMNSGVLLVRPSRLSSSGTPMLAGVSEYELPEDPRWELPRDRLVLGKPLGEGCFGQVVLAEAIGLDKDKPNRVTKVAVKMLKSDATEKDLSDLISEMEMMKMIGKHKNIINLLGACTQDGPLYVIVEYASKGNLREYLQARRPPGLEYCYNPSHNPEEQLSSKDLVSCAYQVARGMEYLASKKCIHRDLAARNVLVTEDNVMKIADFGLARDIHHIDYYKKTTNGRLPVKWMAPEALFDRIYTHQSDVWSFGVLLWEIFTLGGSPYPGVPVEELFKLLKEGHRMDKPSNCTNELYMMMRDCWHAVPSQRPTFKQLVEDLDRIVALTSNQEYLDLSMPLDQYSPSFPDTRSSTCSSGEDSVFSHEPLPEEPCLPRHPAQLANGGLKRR", "chain of UniProt Q07817 (whole entry, looked up)": "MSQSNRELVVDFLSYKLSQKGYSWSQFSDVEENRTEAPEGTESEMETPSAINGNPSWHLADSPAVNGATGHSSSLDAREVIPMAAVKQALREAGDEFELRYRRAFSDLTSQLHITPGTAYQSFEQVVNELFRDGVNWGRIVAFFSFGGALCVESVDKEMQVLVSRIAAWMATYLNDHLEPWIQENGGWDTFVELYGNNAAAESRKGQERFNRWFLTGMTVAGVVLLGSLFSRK", "chain of UniProt Q92843 (whole entry, looked up)": "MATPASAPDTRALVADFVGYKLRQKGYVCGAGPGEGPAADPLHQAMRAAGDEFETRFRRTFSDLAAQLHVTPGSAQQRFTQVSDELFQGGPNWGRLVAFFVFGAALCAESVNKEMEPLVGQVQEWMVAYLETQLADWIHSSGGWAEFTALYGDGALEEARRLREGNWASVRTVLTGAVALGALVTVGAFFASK", "chain of UniProt Q8VYV7 (whole entry, looked up)": "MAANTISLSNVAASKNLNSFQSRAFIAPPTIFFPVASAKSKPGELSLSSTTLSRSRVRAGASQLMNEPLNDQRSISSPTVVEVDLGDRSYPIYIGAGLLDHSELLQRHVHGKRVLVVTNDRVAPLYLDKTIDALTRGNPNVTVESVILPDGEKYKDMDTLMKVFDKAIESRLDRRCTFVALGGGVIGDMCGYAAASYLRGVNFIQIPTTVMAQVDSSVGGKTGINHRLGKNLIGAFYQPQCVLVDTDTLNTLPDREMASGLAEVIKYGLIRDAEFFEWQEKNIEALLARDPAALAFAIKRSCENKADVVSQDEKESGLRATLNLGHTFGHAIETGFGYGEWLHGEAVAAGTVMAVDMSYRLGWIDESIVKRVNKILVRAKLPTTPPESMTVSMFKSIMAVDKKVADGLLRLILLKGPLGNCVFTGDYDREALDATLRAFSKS", "chain of UniProt P48775 (whole entry, looked up)": "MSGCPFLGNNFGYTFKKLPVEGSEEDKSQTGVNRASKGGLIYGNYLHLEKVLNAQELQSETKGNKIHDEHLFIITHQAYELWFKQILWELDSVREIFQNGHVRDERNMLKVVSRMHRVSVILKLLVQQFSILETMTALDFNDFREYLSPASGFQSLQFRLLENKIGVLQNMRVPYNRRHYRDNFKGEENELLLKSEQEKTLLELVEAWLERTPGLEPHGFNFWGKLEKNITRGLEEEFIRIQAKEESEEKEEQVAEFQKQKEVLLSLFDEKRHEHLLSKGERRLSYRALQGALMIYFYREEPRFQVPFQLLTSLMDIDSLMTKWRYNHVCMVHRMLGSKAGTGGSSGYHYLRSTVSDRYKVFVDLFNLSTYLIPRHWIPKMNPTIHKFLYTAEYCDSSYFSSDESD", "chain of UniProt P07237 (whole entry, looked up)": "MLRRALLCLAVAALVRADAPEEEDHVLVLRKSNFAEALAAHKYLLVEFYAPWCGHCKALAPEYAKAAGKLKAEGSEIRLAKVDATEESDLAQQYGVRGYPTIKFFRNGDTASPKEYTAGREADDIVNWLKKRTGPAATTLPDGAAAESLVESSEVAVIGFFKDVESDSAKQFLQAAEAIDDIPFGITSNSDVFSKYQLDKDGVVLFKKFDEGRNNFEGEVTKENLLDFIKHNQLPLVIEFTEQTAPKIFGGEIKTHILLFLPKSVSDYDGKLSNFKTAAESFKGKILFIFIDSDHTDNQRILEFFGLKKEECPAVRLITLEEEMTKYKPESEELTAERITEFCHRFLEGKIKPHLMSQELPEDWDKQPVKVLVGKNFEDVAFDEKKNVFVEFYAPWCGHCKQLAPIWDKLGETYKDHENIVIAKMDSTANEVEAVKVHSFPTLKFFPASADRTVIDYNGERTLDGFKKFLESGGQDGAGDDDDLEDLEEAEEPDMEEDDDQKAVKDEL", "chain of UniProt O15379 (whole entry, looked up)": "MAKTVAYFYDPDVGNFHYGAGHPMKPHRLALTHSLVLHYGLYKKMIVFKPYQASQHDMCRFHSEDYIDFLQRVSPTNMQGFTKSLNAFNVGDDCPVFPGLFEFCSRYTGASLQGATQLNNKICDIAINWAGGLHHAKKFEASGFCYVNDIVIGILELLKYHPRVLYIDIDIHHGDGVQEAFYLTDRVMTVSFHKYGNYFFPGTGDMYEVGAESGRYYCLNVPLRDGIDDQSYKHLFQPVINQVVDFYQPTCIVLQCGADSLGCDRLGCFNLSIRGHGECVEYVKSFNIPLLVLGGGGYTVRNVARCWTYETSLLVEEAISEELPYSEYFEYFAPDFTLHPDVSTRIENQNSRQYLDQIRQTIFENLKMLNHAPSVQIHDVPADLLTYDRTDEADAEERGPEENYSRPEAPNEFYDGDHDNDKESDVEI", "chain of UniProt Q15661 (whole entry, looked up)": "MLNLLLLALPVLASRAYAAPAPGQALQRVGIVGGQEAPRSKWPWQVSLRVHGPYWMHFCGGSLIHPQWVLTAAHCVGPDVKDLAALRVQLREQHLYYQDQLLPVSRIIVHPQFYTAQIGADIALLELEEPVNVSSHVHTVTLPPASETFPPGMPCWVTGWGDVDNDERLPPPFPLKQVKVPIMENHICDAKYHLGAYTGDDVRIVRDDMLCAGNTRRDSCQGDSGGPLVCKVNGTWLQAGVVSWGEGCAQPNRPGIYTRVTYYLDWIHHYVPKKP", "chain of UniProt P00488 (whole entry, looked up)": "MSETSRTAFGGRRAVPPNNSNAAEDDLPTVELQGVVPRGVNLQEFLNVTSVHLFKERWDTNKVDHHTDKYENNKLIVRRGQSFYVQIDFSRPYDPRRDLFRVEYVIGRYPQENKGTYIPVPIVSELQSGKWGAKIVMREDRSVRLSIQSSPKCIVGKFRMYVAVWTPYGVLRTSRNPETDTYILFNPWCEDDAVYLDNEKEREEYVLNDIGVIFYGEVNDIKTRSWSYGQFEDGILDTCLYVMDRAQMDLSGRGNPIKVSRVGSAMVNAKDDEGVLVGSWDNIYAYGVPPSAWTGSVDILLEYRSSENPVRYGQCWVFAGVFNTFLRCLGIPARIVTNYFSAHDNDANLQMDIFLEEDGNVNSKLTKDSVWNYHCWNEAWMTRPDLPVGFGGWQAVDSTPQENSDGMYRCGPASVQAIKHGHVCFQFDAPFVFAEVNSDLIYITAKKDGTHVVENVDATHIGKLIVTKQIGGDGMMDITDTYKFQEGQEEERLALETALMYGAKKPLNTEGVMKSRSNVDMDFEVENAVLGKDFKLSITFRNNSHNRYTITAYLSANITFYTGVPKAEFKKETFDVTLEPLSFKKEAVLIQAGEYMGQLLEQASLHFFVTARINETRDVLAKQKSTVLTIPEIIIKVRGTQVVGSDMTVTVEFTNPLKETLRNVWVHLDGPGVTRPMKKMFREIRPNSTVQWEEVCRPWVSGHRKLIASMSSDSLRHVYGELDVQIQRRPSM", "chain of UniProt Q9NRG4 (whole entry, unmodified, looked up)": "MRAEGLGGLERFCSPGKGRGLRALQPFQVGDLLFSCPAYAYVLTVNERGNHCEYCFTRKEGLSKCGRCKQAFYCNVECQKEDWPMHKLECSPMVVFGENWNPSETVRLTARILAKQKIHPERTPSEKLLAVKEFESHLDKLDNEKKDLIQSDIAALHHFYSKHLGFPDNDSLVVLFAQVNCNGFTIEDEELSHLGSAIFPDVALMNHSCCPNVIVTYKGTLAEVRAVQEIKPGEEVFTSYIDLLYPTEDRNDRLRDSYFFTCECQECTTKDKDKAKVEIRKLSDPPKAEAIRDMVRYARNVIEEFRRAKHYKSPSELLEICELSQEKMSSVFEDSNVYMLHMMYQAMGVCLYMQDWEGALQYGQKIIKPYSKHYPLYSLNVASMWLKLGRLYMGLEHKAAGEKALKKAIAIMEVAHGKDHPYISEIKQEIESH", "chain of UniProt Q9GZX7 (whole entry, looked up)": "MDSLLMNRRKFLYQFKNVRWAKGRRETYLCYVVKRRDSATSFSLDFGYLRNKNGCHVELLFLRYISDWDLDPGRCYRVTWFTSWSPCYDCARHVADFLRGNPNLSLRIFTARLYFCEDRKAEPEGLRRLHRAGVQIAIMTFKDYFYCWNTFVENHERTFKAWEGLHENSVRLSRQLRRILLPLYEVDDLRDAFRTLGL"}
{"Compound": "COc1cccc(-c2nc(Nc3nc4ccccc4o3)ncc2C#N)c1", "target": "Metabotropic glutamate receptor 5 (Grm5, Rattus norvegicus, UniProt P31424)", "test": "calcium signal, antagonist", "IC50": "0.266 µM"}
{"Compound": "CO[C@@H]([C@@H](O)[C@H](O)C(=O)CO)[C@@H](C)O", "target": "3-dehydroquinate synthase, chloroplastic (DHQS, Arabidopsis thaliana, UniProt Q8VYV7)", "test": "enzyme activity, inhibitor, malachite green phosphate release", "setting": "29 °C", "IC50": "> 1000 µM"}
{"Compound": "COc1cc2nccc(Oc3cc(Cl)c(NC(=S)NC4CC4)cc3F)c2cc1C(N)=O", "target": "FGFR1", "IC50": "0.713 µM"}
{"Compound": "C=C(C)c1cc(NNC(=N)N)c(C)cc1NNC(=N)N", "target": "Mycosin-1 (Mycolicibacterium thermoresistibile, UniProt G7CDQ2)", "test": "protease activity, inhibitor, quenched fluorescent peptide", "system": "Mycobacterium thermoresistibile", "IC50": "76.8 µM"}
{"Compound": "CCOCCNC(=O)N1CCC[C@H](c2n[nH]c(-c3ccccc3)n2)C1", "target": "Aromatase (CYP19A1, Homo sapiens, UniProt P11511)", "test": "enzyme activity, inhibitor, fluorescence", "IC50": "31.1 µM"}
{"Compound": "Cc1ccc(CNC(=O)[C@@H](NC(=O)[C@H](CCc2ccccc2)NC(=O)[C@H](CCc2ccccc2)N(C)Cc2cnccn2)C(C)C)cc1", "target": "20S proteasome (Plasmodium falciparum, UniProt A0A5K1K7U1+Q8IJT1)", "test": "β5 activity, inhibitor", "setting": "added: Suc-LLVY-AMC, PA28α-activated", "IC50": "0.0789 µM"}
{"Compound": "O=C(O)[C@@H]1Cc2c([nH]c3ccccc23)[C@@H](c2ccc(F)cc2I)N1", "target": "MEP cytidylyltransferase IspD (Plasmodium falciparum, UniProt Q8I273)", "test": "enzyme activity, inhibitor, fluorimetric pyrophosphate", "setting": "60 nM enzyme", "IC50": "0.14 ± 0.07 µM"}
{"Compound": "COc1cc2nccc(Oc3ccc(NC(=S)Nc4ccc(F)cc4)c(Cl)c3)c2cc1C(N)=O", "target": "FGFR1", "IC50": "0.907 µM"}
{"Compound": "CN(CC(=O)c1ccc2[nH]c(=O)[nH]c2c1)Cc1ccco1", "target": "Single-stranded DNA cytosine deaminase (AICDA, Homo sapiens, UniProt Q9GZX7)", "test": "deaminase activity, inhibitor, alkaline cleavage", "system": "293T lysate, His-tagged AID", "setting": "pH 7.2, 37 °C", "IC50": "390 µM"}
{"Compound": "O=C(CCCCCCN(Cc1ccc2c(c1)OCO2)Cc1ccc2c(c1)OCO2)NO", "target": "Histone deacetylase 3 (HDAC3, Homo sapiens, UniProt O15379)", "test": "enzyme activity, inhibitor, fluorescence", "IC50": "0.76 µM"}
{"Compound": "CCCCCc1ccc(S(=O)(=O)N2CC2C(=O)N(C)C)cc1 (centres unmarked)", "target": "Protein disulfide-isomerase (P4HB, Homo sapiens, UniProt P07237)", "test": "insulin reduction, inhibitor, turbidity", "IC50": "0.08 to 0.085 µM"}
{"Compound": "Cc1cc(C)c(CNC(=O)c2c(O)c(O)cc3c(O)c(-c4c(C)cc5c(C(=O)NCc6c(C)cc(C)cc6C)c(O)c(O)cc5c4O)c(C)cc23)c(C)c1", "target": "Bcl-2-like protein 2 (BCL2L2, Homo sapiens, UniProt Q92843)", "test": "ligand displacement, FP", "IC50": "~1 µM"}
{"Compound": "CC1(C)CCC(CN2CCN(c3ccc(C(=O)NS(=O)(=O)c4ccc(NCC5COCCO5)c([N+](=O)[O-])c4)c(N4CCCOc5nc6[nH]ccc6cc54)c3)CC2)=C(c2ccc(Cl)cc2)C1 (centres unmarked)", "target": "Bcl-2-like protein 1 (BCL2L1, Homo sapiens, UniProt Q07817)", "test": "ligand displacement", "IC50": "0.00376 µM"}
{"Compound": "O=C1C(Cl)=C(NCCN2CCOCC2)C(=O)c2ncccc21", "target": "N-lysine methyltransferase SMYD2 (SMYD2, Homo sapiens, UniProt Q9NRG4, G165E)", "test": "enzyme activity, inhibitor", "IC50": "0.5 µM"}
{"Compound": "N=C(N)SCc1ccc(CSC(=N)N)cc1", "target": "Tryptophan 2,3-dioxygenase (TDO2, Homo sapiens, UniProt P48775)", "setting": "added: L-tryptophan 2 mM", "IC50": "> 30 µM"}
{"Compound": "CC(C)(O)C(=O)C(=O)Nc1cccc(C(=O)N2CCC(c3cccc(CN)c3)CC2)c1", "target": "Tryptase beta-1 (Homo sapiens, UniProt Q15661)", "test": "enzyme activity, inhibitor, AMC substrate release", "IC50": "0.373 µM"}
{"Compound": "O=C(Nc1ccc(C(=O)Nc2ccc(C(=O)Nc3ccc(S(=O)(=O)O)c4cc(S(=O)(=O)O)cc(S(=O)(=O)O)c34)cc2)cc1)Nc1ccc(C(=O)Nc2ccc(C(=O)Nc3ccc(S(=O)(=O)O)c4cc(S(=O)(=O)O)cc(S(=O)(=O)O)c34)cc2)cc1", "target": "Coagulation factor XIII A chain (F13A1, Homo sapiens, UniProt P00488)", "test": "enzyme activity, inhibitor, fluorescence", "setting": "pH 7.4", "IC50": "~84 µM"}
{"note": "A few entries again:"}
{"Compound": "COc1cc2nccc(Oc3cc(Cl)c(NC(=S)NC4CC4)cc3F)c2cc1C(N)=O", "target": "FGFR1", "IC50": "0.713 µM"}
{"Compound": "COc1cc2nccc(Oc3ccc(NC(=S)Nc4ccc(F)cc4)c(Cl)c3)c2cc1C(N)=O", "target": "FGFR1", "IC50": "0.907 µM"}
